Measured values gathered from unrelated publications.
Every numbered part comes from another study and shows a few of its results, in no order. “And” joins repeats or separate records; there may be more than shown.

Study 1
Cell line: normal organoid sample E
Method: CellTiter-Glo
Host: human
Medium: normal-adjacent epithelium
Tested at: 1 µM
Relative to: DMSO
Measurement: viability
Cc1c(Oc2ccc(F)cc2)c(OC(C)C)nn1-c1ccc(C2CC2)cn1: 113% and 98.9%
CC(=O)C1=C(C)N(c2cccc(C(F)(F)F)c2)C(=O)N[C@H]1c1ccc(C#N)nc1: 123% and 103%
Cc1cnc(-c2cc(Cl)ccc2F)cc1-n1c(=O)n(CC(N)=O)c2cnccc21: 105% and 134%
Cc1c(NC(=O)c2ccc(C(C)(C)C)cc2)cccc1-c1cn(C)c(=O)c(Nc2ccc(C(=O)N3CCOCC3)cc2)n1: 95.6% and 78.7%
O=C(Nc1cnc(Oc2ccc(F)cc2)nc1)N1CCc2ncccc2[C@@H]1c1ccc(F)cc1: 184% and 150%
O=C(O)c1cc(-c2ccc(C3CCNCC3)cc2)c2ccc(-c3ccc(C(F)(F)F)cc3)cc2c1: 130% and 106%
CCNC(=O)c1cc2c(N3CCOC[C@@H]3C)ccnc2[nH]1: 111% and 116%
O=c1nc(-c2ccccn2)sc2ccccc12: 62% and 71.8%
CC1=C(C#N)C(c2ccc3[nH]nc(C)c3c2)C(C#N)=C(C)N1: 121% and 122%
CO[C@@H](C)c1c(Nc2ccc([C@H](N(C)C(=O)C3CCS(=O)(=O)CC3)C(F)(F)F)cc2)cnc2cc(Cl)nn12: 93.5% and 101%
CC(=O)N1CCC(c2ccc(C(=O)NC(=N)N)cc2C(F)(F)F)CC1: 92.2% and 100%
O=C(N1CCS(=O)(=O)CC1)N1C[C@H](c2ccc(OC(F)(F)F)cc2)C[C@H](c2nc(C3CC3)no2)C1: 128% and 51.1%

Study 2
SMILES: CC(=O)N[C@@H](Cc1c[nH]c2ccccc12)C(=O)N[C@@H](CCC(=O)C=[N+]=[N-])C(=O)OC(C)C
Route: subcutaneous
Time: 5 days
Measurement: metabolite peak intensity
LC-MS/MS, refers to: methyl glucopyranoside (alpha+beta); C57BL/6 CES1-/- mice, EL4 tumour; 0.3 mg/kg DON equivalent: 242000 a.u. and 244000 a.u. and 165000 a.u. and 160000 a.u. and 220000 a.u. and 273000 a.u.
UPLC-MS/MS metabolomics, refers to: N-acetylhistidine; C57BL/6 CES1-/- mice, EL4 tumour, EL4 tumour; 0.3 mg/kg/day DON equivalent, normalised to tissue mass; higher = more metabolite: 937000 a.u. and 1.1e+06 a.u. and 1.11e+06 a.u. and 656000 a.u. and 1.42e+06 a.u.
LC-MS/MS metabolomics, refers to: mannose 6-phosphate; C57BL/6 CES1-/- mice, EL4 tumour, EL4 tumour; 0.3 mg/kg/day DON equivalent; higher = more metabolite: 1.73e+07 a.u. and 2.1e+07 a.u. and 1.86e+07 a.u. and 2.03e+07 a.u. and 1.36e+07 a.u. and 1.87e+07 a.u.
UPLC-MS/MS, refers to: inosine 5'-monophosphate; EL4, C57BL/6 CES1-/- mice, EL4 tumour, tumour; 0.3 mg/kg/day DON equivalent, normalised to tissue mass; higher = more metabolite: 2.36e+07 a.u. and 1.52e+08 a.u. and 2.8e+07 a.u. and 1.88e+08 a.u. and 5.03e+07 a.u. and 2.34e+08 a.u.
LC-MS/MS metabolomics, refers to: phosphate; C57BL/6 CES1-/- mice, EL4 tumour, EL4 tumour; 0.3 mg/kg/day DON equivalent; higher = more metabolite: 3.42e+08 a.u. and 3.28e+08 a.u. and 2.99e+08 a.u. and 2.77e+08 a.u. and 3.13e+08 a.u. and 2.87e+08 a.u.
UPLC-MS/MS, refers to: lysine; EL4, C57BL/6 CES1-/- mice, EL4 tumour, tumour; 0.3 mg/kg/day DON equivalent, normalised to tissue mass; higher = more metabolite: 1.36e+09 a.u. and 1.62e+09 a.u. and 1.32e+09 a.u. and 1.2e+09 a.u. and 1.38e+09 a.u. and 1.44e+09 a.u.
UPLC-MS/MS metabolomics, refers to: guanosine 2'-monophosphate; C57BL/6 CES1-/- mice, EL4 tumour, EL4 tumour; 0.3 mg/kg/day DON equivalent, normalised to tissue mass: 96900 a.u. and 165000 a.u. and 172000 a.u. and 132000 a.u. and 210000 a.u. and 90600 a.u.
LC-MS/MS metabolomics, refers to: nicotinamide; C57BL/6 CES1-/- mice, EL4 tumour, EL4 tumour; 0.3 mg/kg/day DON equivalent; higher = more metabolite: 5.33e+08 a.u. and 3.93e+08 a.u. and 5.7e+08 a.u. and 5.21e+08 a.u. and 4.18e+08 a.u. and 5.64e+08 a.u.
LC-MS/MS metabolomics, refers to: orotidine; C57BL/6 CES1-/- mice, EL4 tumour, EL4 tumour; 0.3 mg/kg/day DON equivalent; higher = more metabolite: 2.5e+07 a.u. and 5.13e+07 a.u. and 6.8e+07 a.u. and 4.88e+07 a.u. and 3.72e+07 a.u. and 4.96e+07 a.u.
LC-MS/MS metabolomics, refers to: methylsuccinate; C57BL/6 CES1-/- mice, EL4 tumour, EL4 tumour; 0.3 mg/kg/day DON equivalent; higher = more metabolite: 3.58e+08 a.u. and 1.71e+08 a.u. and 4.5e+08 a.u. and 1.68e+08 a.u. and 1.24e+08 a.u. and 1.5e+08 a.u.

Study 3
Target: Myosin light chain kinase, smooth muscle (MYLK, Homo sapiens, UniProt Q15746)
UniProt Q15746, sequence (whole entry, looked up): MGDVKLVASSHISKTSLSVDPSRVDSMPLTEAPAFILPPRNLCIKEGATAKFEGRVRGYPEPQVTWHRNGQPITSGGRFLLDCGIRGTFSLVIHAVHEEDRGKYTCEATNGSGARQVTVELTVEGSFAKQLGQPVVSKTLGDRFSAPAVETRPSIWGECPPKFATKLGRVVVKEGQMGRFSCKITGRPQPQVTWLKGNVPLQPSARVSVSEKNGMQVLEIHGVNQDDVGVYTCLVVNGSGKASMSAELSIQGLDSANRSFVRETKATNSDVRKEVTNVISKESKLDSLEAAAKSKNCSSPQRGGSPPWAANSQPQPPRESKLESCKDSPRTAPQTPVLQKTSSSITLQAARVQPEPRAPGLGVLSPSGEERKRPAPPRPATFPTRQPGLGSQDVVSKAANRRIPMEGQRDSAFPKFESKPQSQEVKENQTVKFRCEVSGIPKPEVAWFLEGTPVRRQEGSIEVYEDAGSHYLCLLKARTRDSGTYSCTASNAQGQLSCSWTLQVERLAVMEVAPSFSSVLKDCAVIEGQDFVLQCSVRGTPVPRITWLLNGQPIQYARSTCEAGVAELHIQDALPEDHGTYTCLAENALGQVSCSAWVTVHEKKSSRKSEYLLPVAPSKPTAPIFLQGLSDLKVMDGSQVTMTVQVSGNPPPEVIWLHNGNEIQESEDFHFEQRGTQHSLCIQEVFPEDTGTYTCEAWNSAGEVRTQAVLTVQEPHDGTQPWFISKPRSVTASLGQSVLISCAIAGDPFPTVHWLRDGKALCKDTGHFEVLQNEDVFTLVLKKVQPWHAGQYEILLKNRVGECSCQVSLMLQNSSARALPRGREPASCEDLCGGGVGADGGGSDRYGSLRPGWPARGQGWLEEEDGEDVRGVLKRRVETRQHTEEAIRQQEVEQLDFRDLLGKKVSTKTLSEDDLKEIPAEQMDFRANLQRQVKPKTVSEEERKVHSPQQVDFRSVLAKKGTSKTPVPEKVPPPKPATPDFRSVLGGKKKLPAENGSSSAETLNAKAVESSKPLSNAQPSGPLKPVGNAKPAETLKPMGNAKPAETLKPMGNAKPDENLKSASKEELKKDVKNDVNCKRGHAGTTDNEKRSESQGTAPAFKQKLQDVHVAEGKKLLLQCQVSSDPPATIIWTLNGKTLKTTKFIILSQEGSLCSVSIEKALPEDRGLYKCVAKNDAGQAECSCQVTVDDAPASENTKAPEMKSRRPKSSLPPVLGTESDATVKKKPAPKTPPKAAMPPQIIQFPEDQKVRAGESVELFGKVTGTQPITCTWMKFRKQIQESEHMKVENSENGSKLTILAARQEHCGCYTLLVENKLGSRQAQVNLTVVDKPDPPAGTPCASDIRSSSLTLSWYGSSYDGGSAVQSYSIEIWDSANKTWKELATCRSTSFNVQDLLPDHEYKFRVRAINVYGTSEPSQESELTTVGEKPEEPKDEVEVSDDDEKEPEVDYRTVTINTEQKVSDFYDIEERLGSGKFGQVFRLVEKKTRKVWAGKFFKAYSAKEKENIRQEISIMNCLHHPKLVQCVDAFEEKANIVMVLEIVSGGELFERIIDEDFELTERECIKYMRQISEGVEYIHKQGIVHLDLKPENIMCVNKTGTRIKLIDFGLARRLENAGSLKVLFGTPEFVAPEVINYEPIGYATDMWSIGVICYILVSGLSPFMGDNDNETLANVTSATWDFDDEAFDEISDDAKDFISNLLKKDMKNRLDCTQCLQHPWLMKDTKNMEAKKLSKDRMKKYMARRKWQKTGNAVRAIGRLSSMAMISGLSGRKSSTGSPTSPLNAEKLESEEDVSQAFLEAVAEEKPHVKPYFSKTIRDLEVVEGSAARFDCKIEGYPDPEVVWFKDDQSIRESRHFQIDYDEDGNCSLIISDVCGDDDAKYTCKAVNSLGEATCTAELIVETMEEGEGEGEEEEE
Observed: enzyme activity
Action: inhibitor
Tested at: 0.5 µM
Relative to: control
Measurement: remaining activity
N#C/C(=C\c1ccc(O)c(O)c1)C(=O)NCc1ccccc1: 94.5%
Cc1cn(-c2cc(NC(=O)c3ccc(C)c(Nc4nccc(-c5cccnc5)n4)c3)cc(C(F)(F)F)c2)cn1: 93.3%
C[C@@H]1CCN(C(=O)CC#N)C[C@@H]1N(C)c1ncnc2[nH]ccc12: 89.9%
O=c1cc(-c2cccc3c2Sc2ccccc2S3)oc(N2CCOCC2)c1: 102%
CCN(CC)CCNC(=O)c1c(C)[nH]c(/C=C2\C(=O)Nc3ccc(Cl)cc32)c1C: 17.6%
COc1cc2ncnc(Nc3ccc(O)c(Br)c3)c2cc1OC: 84.6%
c1ccc(-c2cnc(Nc3ccc(OCCN4CCCC4)cc3)s2)cc1: 96.9%
O=C(Nc1cccc(Nc2nccc(Nc3cccc(C(F)(F)F)c3)n2)c1)C1CC1: 90%
c1ccc(-c2[nH]ncc2-c2ccnc3ccccc23)nc1: 105%
CCOc1nc(NC(=O)Cc2cc(OC)ccc2OC)cc(N)c1C#N: 96.5%
CCN(CC)C(=O)c1ccc(Nc2nc(OCC3CCCCC3)c3[nH]cnc3n2)cc1: 91.6%
Ic1cccc(CSc2nnc(-c3ccncc3)o2)c1: 99.1%
Cc1nc2cc3nc(-c4cccs4)cnc3cc2n1C: 97%
CCN(CC)CCNC(=O)c1c(C)[nH]c(/C=C2\C(=O)Nc3ccc(F)cc32)c1C: 25.6%
CN(C)C[C@H]1CCn2c(c(C3=C(c4cn(C)c5ccccc45)C(=O)NC3=O)c3ccccc32)C1: 84%
COc1cc2c(cc1OC)-c1[nH]nc(Nc3cccc(F)c3)c1C2: 102%
Cc1cc2ncc(-c3ccccc3)nc2cc1C: 102%
Cn1nc2c3c(cccc31)C(=O)c1ccccc1-2: 77.4%
Nc1cccc(-c2cc3c(Oc4cccc(O)c4)ncnc3[nH]2)c1: 81.7%
N#Cc1c(NC(=O)c2cccc3ccccc23)sc2c1CCCC2: 98.7%
O=C(NC(NC(=S)Nc1ccc(F)c([N+](=O)[O-])c1)C(Cl)(Cl)Cl)C(c1ccccc1)c1ccccc1 (stereo not drawn): 99.6%
COc1cc2ncnc(Nc3cccc(Cl)c3)c2cc1OC: 89%
O=C1C(Cl)=C(N2C(=O)CCC2=O)C(=O)c2ccccc21: 99.4%

Study 4
Cell line: mouse MPNST tumor cells
Method: high-content immunofluorescence imaging
Refers to: nuclear SOX9
Tested at: 10 µM
Time: 12 h
Notes: mean of 2 replicates
Relative to: DMSO control
Direction: higher = more nuclear SOX9
Measurement: nuclear SOX9 intensity
C[C@H](CCC(=O)O)[C@H]1CC[C@H]2[C@@H]3C(=O)C[C@@H]4CC(=O)CC[C@]4(C)[C@H]3CC(=O)[C@]12C: 95.6 % of DMSO
NC(=O)N/N=C/c1ccc([N+](=O)[O-])o1: 106 % of DMSO
CC(C)/N=c1\cc2n(-c3ccc(Cl)cc3)c3ccccc3nc-2cc1Nc1ccc(Cl)cc1: 142 % of DMSO
CC[N+](CC)(CC)CCOc1ccc(/C=C/c2ccccc2)cc1: 84.2 % of DMSO
CC[N+](C)(CC)CCOC(=O)C(O)(c1ccccc1)C1CCCCC1 (stereo not drawn): 96.6 % of DMSO
CCCC(=O)C1(c2ccccc2)CCN(C(=O)[C@@H](Cc2ccc(OC)cc2)NC(=O)[C@@H](N)Cc2cncn2C)CC1: 122 % of DMSO
CO[C@H]1C[C@@H]2CC[C@@H](C)[C@@](O)(O2)C(=O)C(=O)N2CCCC[C@H]2C(=O)O[C@H]([C@H](C)C[C@@H]2CC[C@@H](OCCO)[C@H](OC)C2)CC(=O)[C@H](C)/C=C(\C)[C@@H](O)[C@@H](OC)C(=O)[C@H](C)C[C@H](C)/C=C/C=C/C=C/1C: 90.6 % of DMSO
CC1(C)OC(=O)NC1=O: 101 % of DMSO
NC[C@@H]1O[C@@H](O[C@H]2[C@H](O)[C@@H](O[C@H]3O[C@H](CO)[C@@H](O)[C@H](N)[C@H]3O)[C@H](N)C[C@@H]2N)[C@@H](O)[C@H](O)[C@H]1O: 95.9 % of DMSO
Oc1ccc(-c2nc3cc(O)cc(Br)c3o2)cc1: 124 % of DMSO
CC(C)C(NC(=O)Cn1c(-c2ccccc2)ncc(N)c1=O)C(=O)c1nnc(C(C)(C)C)o1 (stereo not drawn): 90.3 % of DMSO
CNC(=O)c1c(F)cccc1Nc1nc(Nc2cc3c(cc2OC)CCN3C(=O)CN(C)C)nc2[nH]ccc12: 90 % of DMSO
